Assay results of several laboratories.
Numbered parts are unrelated; each lists some results of a single study. Several values in a cell are separate wells, animals, samples, runs or records.

Sample 1
SMILES: COCC1CC2C(CCC3C(O)CCC32)c2ccc(O)cc21 (stereo not drawn)
cell line | assay | conditions | scale | log2 fold change
SK-OV-3 | DNA microarray, item: ACTA2 | 100 µM | baseline: untreated control | -0.71
A549 | microarray, item: AURKA | 25 µM | baseline: untreated | 0.136
SK-OV-3 | DNA microarray, item: UBD | 100 µM | baseline: untreated | -0.82
PANC-1 | DNA microarray, item: ACTB mRNA | 25 µM | baseline: control | -0.717
PANC-1 | microarray, item: OLIG2 | 100 µM | baseline: untreated | 0
A549 | DNA microarray, item: GINS1 | 100 µM | baseline: untreated cells | -0.234
A549 | DNA microarray, item: TMEM108 | 25 µM | baseline: untreated cells | 1.41
SK-OV-3 | microarray, item: CDC25B | 25 µM | baseline: untreated | 0.23
A549 | DNA microarray, item: KIF20A | 25 µM | baseline: untreated cells | -0.0302 and -0.0467 and 0.00913 and 0.00777 and -0.0242

Sample 2
SMILES: CC(C)(C)c1ccc(Oc2ccc3c(c2)OC(O)(C(=O)O)C(=O)N3Cc2ccccc2)cc1 (stereo not drawn)
organism | assay | system | conditions | scale | inhibition
Arabidopsis thaliana | root length | Col-0 | 12.5 µg/mL, 7 days, seed germination, dark |  | 38.5%
Arabidopsis thaliana | root length | Col-0, seedlings | 100 µg/mL |  | 89.7%
Arabidopsis thaliana | hypocotyl length | Col-0, seedlings | 50 µg/mL |  | 32.3%
Arabidopsis thaliana | root length | Col-0, seedlings | 6.25 µg/mL |  | 22.6%
Arabidopsis thaliana | hypocotyl length | Col-0 | 6.25 µg/mL, 7 days, seed germination, dark |  | 15.4%
Arabidopsis thaliana | hypocotyl length | Col-0, seedlings | 6.25 µg/mL |  | 15.4%
Arabidopsis thaliana | root length | Col-0 | 6.25 µg/mL, 7 days, seed germination, dark |  | 22.6%
Triticum aestivum | fresh weight |  | soil surface spray, 150 g ai/ha, 21 days, pre-emergence crop safety |  | 16.9% and 15.4% and 14.8%
Arabidopsis thaliana | hypocotyl length | Col-0, seedlings | 3.125 µg/mL |  | 4.64%
Zea mays | fresh weight |  | soil surface spray, 150 g ai/ha, 21 days, pre-emergence crop safety |  | 0.25% and 0.2% and 0.4%
Arabidopsis thaliana | root length | Col-0, seedlings | 100 µg/mL | baseline: water control | 89.7%
Arabidopsis thaliana | root length | Col-0, seedlings | 3.125 µg/mL | baseline: water control | 7.74%
Setaria viridis | fresh weight |  | 150 g ai/ha, pre-emergence treatment |  | 81.4% and 82.3% and 83.2%
Arabidopsis thaliana | root length | Col-0, seedlings | 12.5 µg/mL | baseline: water control | 38.5%

Sample 3 — cell line: HCC1569; effect on: CDK1 Thr14 phosphorylation; technique: in-cell western; tested at: 37.04 nM; reading: lower = stronger inhibition
Structure (SMILES) | phospho-CDK1 (Thr14) level
Cc1ccc(O)c(C)c1-c1cnc2[nH]c(-c3cnc(N4CCC5(CC4)CC(N4CCN(c6ccc(NC7CCC(=O)NC7=O)cc6F)CC4)CO5)nc3)cc2c1C#N (stereo not drawn) | 62.2 a.u. and 53.1 a.u.
Cc1ccc(O)c(C)c1-c1cnc2[nH]c(-c3cnc(N4CCC(CN5CCN(c6cc7c(cc6F)c(N6CCC(=O)NC6=O)nn7C)CC5)CC4)nc3)cc2c1C#N | 24.6 a.u. and 42.3 a.u.
Cc1ccc(O)c(C)c1-c1cnc2[nH]c(-c3cnc(N4CCC(CN5CCN(c6ccc(NC7CCC(=O)NC7=O)cc6F)CC5)CC4)nc3)cc2c1C#N (stereo not drawn) | 47.2 a.u. and 38.2 a.u.
Cc1ccc(O)c(C)c1-c1cnc2[nH]c(-c3cnc(N4CCC(CN5CCN(c6cc7c(cc6F)n(C6CCC(=O)NC6=O)c(=O)n7C)CC5)CC4)nc3)cc2c1C#N (stereo not drawn) | 17.7 a.u. and 12.2 a.u.
Cc1ccc(O)c(C)c1-c1cnc2[nH]c(-c3cnc(N4CC5(CC(CN6CCN(c7ccc(NC8CCC(=O)NC8=O)cc7F)CC6)C5)C4)nc3)cc2c1C#N (stereo not drawn) | 53.6 a.u. and 62.4 a.u.

Sample 4 — cell line: Gaucher fibroblasts L444P/L444P; technique: 4-MUG hydrolysis, cell lysate; tested at: 1 µM; baseline: DMSO
Compound | GCase activity
Ic1ccc(Nc2nc(NCCN3CCCCC3)nc(N3CCOCC3)n2)cc1 | 107% and 116% and 112% and 119% and 109%
Ic1ccc(Nc2nc(NCCc3c[nH]c4ccccc34)nc(NCCN3CCOCC3)n2)cc1 | 99.9% and 86.9% and 102% and 98.4% and 89.8%
CCOc1ccc2nc(Sc3nc(N4CCOCC4)nc(N4CCOCC4)n3)sc2c1 | 95.4% and 99.3% and 90.6% and 86.6% and 110%
Ic1ccc(Nc2nc(N3CCOCC3)nc(N3CCOCC3)n2)cc1 | 179% and 172% and 162% and 148%
Ic1ccc(Nc2nc(NCCN3CCOCC3)nc(N3CCCC3)n2)cc1 | 100% and 110% and 90.6%
Ic1cccc(Nc2nc(NCCN3CCOCC3)nc(N3CCOCC3)n2)c1 | 111% and 114% and 110% and 109% and 115%
Ic1ccc(Nc2nc(NCCN3CCOCC3)nc(N3CCSCC3)n2)cc1 | 98% and 113% and 93.8% and 105%
Fc1ccc(Nc2nc(NCCN3CCOCC3)nc(N3CCOCC3)n2)cc1 | 99.4% and 100% and 92.1% and 98.2% and 101% and 105%

Excerpt of the above (sample 3):
Structure (SMILES) | phospho-CDK1 (Thr14) level
Cc1ccc(O)c(C)c1-c1cnc2[nH]c(-c3cnc(N4CCC(CN5CCN(c6ccc(NC7CCC(=O)NC7=O)cc6F)CC5)CC4)nc3)cc2c1C#N (stereo not drawn) | 47.2 a.u. and 38.2 a.u.
Cc1ccc(O)c(C)c1-c1cnc2[nH]c(-c3cnc(N4CC5(CC(CN6CCN(c7ccc(NC8CCC(=O)NC8=O)cc7F)CC6)C5)C4)nc3)cc2c1C#N (stereo not drawn) | 53.6 a.u. and 62.4 a.u.
Cc1ccc(O)c(C)c1-c1cnc2[nH]c(-c3cnc(N4CCC5(CC4)CC(N4CCN(c6ccc(NC7CCC(=O)NC7=O)cc6F)CC4)CO5)nc3)cc2c1C#N (stereo not drawn) | 62.2 a.u. and 53.1 a.u.
Cc1ccc(O)c(C)c1-c1cnc2[nH]c(-c3cnc(N4CCC(CN5CCN(c6cc7c(cc6F)n(C6CCC(=O)NC6=O)c(=O)n7C)CC5)CC4)nc3)cc2c1C#N (stereo not drawn) | 17.7 a.u. and 12.2 a.u.
